Measured values pooled from the literature.
Compare with care: the assays were run in different laboratories. “And” joins repeats or separate records; there may be more than shown. Values after ≈ are worked out from the molar mass of the structure shown.

Structure (SMILES) = O=C1C(=O)c2[nH]cc3c2C(=C1Cl)NCC3; organism = Babesia duncani; test = parasite growth, SYBR Green; conditions = 60 h, blood stage; measurement = IC50; result = 24 µM
Structure (SMILES) = COc1ccc2cc(-c3ccc(Cn4ccnc4)cc3)ccc2c1; organism = Mycobacterium tuberculosis variant bovis BCG; test = microbial growth; test system = BCG; measurement = MIC50; result = 2.4 µM (≈ 0.755 µg/mL)
Structure (SMILES) = CC(C)CC(C(=O)N1CC2(CC1C#N)C(=O)Nc1ccccc12)N(C)C(=O)c1cc2c(F)cc(F)c(F)c2[nH]1 (stereo not drawn); organism = human coronavirus 229E; test = viral replication; conditions = 0.0037 µM; measurement = inhibition; result = 99%
Structure (SMILES) = COc1ccc(CCNC2=CC3=[N+](C)CCc4c[nH]c(c43)C2=O)cc1; organism = Babesia duncani; test = parasite growth, SYBR Green; conditions = 60 h, blood stage; measurement = IC50; result = 0.0683 µM
Structure (SMILES) = CN[C@@H]1[C@H](O)[C@H](NC)[C@H]2O[C@]3(O)[C@H](O[C@@H]2[C@H]1O)O[C@H](C)C[C@H]3NC(=O)Cc1ccc(Cl)cn1; organism = Mycobacterium ulcerans; test system = ATCC 35840; measurement = MIC; result = 0.2 to 0.4 µg/mL
Structure (SMILES) = Cc1nc2cc(OC(F)(F)F)ccn2c1C(=O)NCc1ccc2oc(-c3ccc(Cl)cc3)nc2c1; organism = Mycolicibacterium smegmatis; conditions = 72 h; measurement = MIC; result = > 100 µM
Structure (SMILES) = Cc1ccc(CNC(=O)Cc2c(C)nc3ccc(C)cn23)cc1; organism = Mycobacterium tuberculosis variant bovis BCG; test = microbial growth; test system = BCG; conditions = 6 days; measurement = MIC; result = 6.1 µM
Structure (SMILES) = Fc1ccc(F)c(-c2ccc(Cn3ccnc3)c(F)c2)c1; organism = Mycobacterium tuberculosis variant bovis BCG; test = microbial growth; test system = BCG; measurement = MIC50; result = 2.9 µM (≈ 0.836 µg/mL)
Structure (SMILES) = Nc1ccccc1C(=O)OCC#CCOC(=O)c1ccccc1N; organism = Clavispora lusitaniae; test = microbial growth, broth dilution; test system = MY1396; measurement = MIC; result = > 128 µg/mL
Structure (SMILES) = Cc1nc2cc(C(F)(F)F)ccn2c1C(=O)NCc1ccc2oc(-c3ccc(OC(F)(F)F)cc3)nc2c1; organism = Mycolicibacterium smegmatis; conditions = 72 h; measurement = MIC; result = > 50 µM
Structure (SMILES) = CN[C@@H]1[C@H](O)[C@H](NC)[C@H]2O[C@]3(O)[C@H](O[C@@H]2[C@H]1O)O[C@H](C)C[C@H]3NC(=O)Cc1cc(Cl)ccn1; organism = Mycobacterium tuberculosis variant bovis BCG; test = microbial growth; test system = BCG; measurement = MIC; result = 0.4 to 0.8 µg/mL
Structure (SMILES) = CCc1nc2cc(C(F)(F)F)ccn2c1C(=O)NCc1ccc2oc(-c3ccc(OC(F)(F)F)cc3)nc2c1; organism = Mycolicibacterium smegmatis; measurement = MIC90; result = > 100 µM
Structure (SMILES) = CN[C@@H]1[C@H](O)[C@H](NC)[C@H]2O[C@]3(O)[C@H](O[C@@H]2[C@H]1O)O[C@H](C)C[C@H]3NC(=O)Cc1cscn1; organism = Mycobacterium tuberculosis variant bovis BCG; test = microbial growth; test system = BCG; measurement = MIC; result = 1.6 µg/mL
Structure (SMILES) = COc1ccc(-c2ccc3c(c2)CCC3n2ccnc2)cc1 (stereo not drawn); organism = Mycobacterium tuberculosis variant bovis BCG; test = microbial growth; test system = BCG; measurement = MIC50; result = 3.3 µM (≈ 0.958 µg/mL)
Structure (SMILES) = Cc1nc2ccc(Br)cn2c1C(=O)NCc1ccc2oc(-c3ccc(OC(F)(F)F)cc3)nc2c1; organism = Mycolicibacterium smegmatis; measurement = MIC90; result = > 100 µM
Structure (SMILES) = Cc1cc(Oc2nc(N3CC[C@@H](c4ccncc4)C3)ncc2F)[nH]n1; organism = Mycobacterium tuberculosis; test = OD; test system = H37Rv PurF CRISPRi knockdown; conditions = 7e-06 µM, added: anhydrotetracycline low; measurement = normalised growth; result = 97% and 99% and 102%
Structure (SMILES) = Fc1cc(-c2ccc3c(c2)OCO3)ccc1Cn1ccnc1; organism = Mycobacterium tuberculosis variant bovis BCG; test = microbial growth; test system = BCG; measurement = MIC50; result = 5.8 µM (≈ 1.72 µg/mL)
Structure (SMILES) = Cc1nc2ccc(C(F)(F)F)cn2c1C(=O)NCc1ccc2oc(-c3ccc(OC(F)(F)F)cc3)nc2c1; organism = Mycolicibacterium smegmatis; conditions = 72 h; measurement = MIC; result = > 100 µM
Structure (SMILES) = Fc1ccc(-c2ccc(/C=C/Cn3ccnc3)cc2)cc1; organism = Mycobacterium tuberculosis variant bovis BCG; test = microbial growth; test system = BCG; measurement = MIC50; result = 1.5 µM (≈ 0.417 µg/mL)
Structure (SMILES) = CN[C@@H]1[C@H](O)[C@H](NC)[C@H]2O[C@]3(O)[C@H](O[C@@H]2[C@H]1O)O[C@H](C)C[C@H]3NC(=O)Cc1ccc(F)cn1; organism = Mycobacterium ulcerans; test system = ATCC 35840; measurement = MIC; result = 0.8 to 1.6 µg/mL
Structure (SMILES) = CCc1nc2cc(OC(F)(F)F)ccn2c1C(=O)NCc1ccc2oc(-c3ccc(OC(F)(F)F)cc3)nc2c1; organism = Mycolicibacterium smegmatis; measurement = MIC90; result = > 100 µM
Structure (SMILES) = O=C1C(=O)c2[nH]cc3c2C(=C1I)NCC3; organism = Babesia duncani; test = parasite growth, SYBR Green; conditions = 60 h, blood stage; measurement = IC50; result = 27.5 µM
Structure (SMILES) = CCc1nc2cc(C(F)(F)F)ccn2c1C(=O)NCc1ccc2oc(-c3ccc(Cl)cc3)nc2c1; organism = Mycolicibacterium smegmatis; measurement = MIC90; result = > 100 µM
Structure (SMILES) = O=C1C(NCCc2ccc(O)cc2)=CC2=NCCc3c(Br)[nH]c1c32; organism = Babesia duncani; test = parasite growth, SYBR Green; conditions = 60 h, blood stage; measurement = IC50; result = 4.8 µM
Structure (SMILES) = Cc1nc2ccc(OC(F)(F)F)cn2c1C(=O)NCc1ccc2oc(-c3ccc(OC(F)(F)F)cc3)nc2c1; organism = Mycolicibacterium smegmatis; measurement = MIC90; result = > 100 µM
Structure (SMILES) = CCc1ccn2c(C(=O)NC(C)c3ccccc3)c(C)nc2c1 (stereo not drawn); organism = Mycolicibacterium smegmatis; test = microbial growth; test system = MC2155; conditions = 2 mM; measurement = inhibition zone; result = 0 mm
Structure (SMILES) = Cc1ccc(S(=O)(=O)n2cc3c4c2C(=O)C(NCCc2ccc(O)cc2)=CC4=NCC3)cc1; organism = Babesia duncani; test = parasite growth, SYBR Green; conditions = 60 h, blood stage; measurement = IC50; result = 0.455 µM
Structure (SMILES) = CN[C@@H]1[C@H](O)[C@H](NC)[C@H]2O[C@]3(O)[C@H](O[C@@H]2[C@H]1O)O[C@H](C)C[C@H]3NC(=O)Cc1ccccn1; organism = Mycobacterium tuberculosis variant bovis BCG; test = microbial growth; test system = BCG; measurement = MIC; result = 0.8 to 1.6 µg/mL
Structure (SMILES) = COC1=CC2=NCCc3c[nH]c(c32)C1=O; organism = Babesia duncani; test = parasite growth, SYBR Green; conditions = 60 h, blood stage; measurement = IC50; result = 0.848 µM
Structure (SMILES) = c1cn(Cc2ccc(-c3ccc4occc4c3)cc2)cn1; organism = Mycobacterium tuberculosis variant bovis BCG; test = microbial growth; test system = BCG; measurement = MIC50; result = 2.6 µM (≈ 0.713 µg/mL)

Excerpt of the above:
Structure (SMILES) = CCc1ccn2c(C(=O)NC(C)c3ccccc3)c(C)nc2c1 (stereo not drawn); organism = Mycolicibacterium smegmatis; test = microbial growth; test system = MC2155; conditions = 2 mM; measurement = inhibition zone; result = 0 mm
Structure (SMILES) = COc1ccc2cc(-c3ccc(Cn4ccnc4)cc3)ccc2c1; organism = Mycobacterium tuberculosis variant bovis BCG; test = microbial growth; test system = BCG; measurement = MIC50; result = 2.4 µM (≈ 0.755 µg/mL)
Structure (SMILES) = COc1ccc(-c2ccc3c(c2)CCC3n2ccnc2)cc1 (stereo not drawn); organism = Mycobacterium tuberculosis variant bovis BCG; test = microbial growth; test system = BCG; measurement = MIC50; result = 3.3 µM (≈ 0.958 µg/mL)
Structure (SMILES) = CN[C@@H]1[C@H](O)[C@H](NC)[C@H]2O[C@]3(O)[C@H](O[C@@H]2[C@H]1O)O[C@H](C)C[C@H]3NC(=O)Cc1cc(Cl)ccn1; organism = Mycobacterium tuberculosis variant bovis BCG; test = microbial growth; test system = BCG; measurement = MIC; result = 0.4 to 0.8 µg/mL
